# Published values gathered from unrelated publications.
# Each numbered part is a random draw from the data of one study; scales do not carry over between parts.

# Block 1 — method: RNA Bind-n-Seq; form: RNA; matrix: in vitro; tested at: 365 nM; baseline: no-protein control; direction: higher = stronger binding
# Target: RNA binding protein fox-1 homolog 2, RRM domain, GST-SBP tag (RBFOX2, Homo sapiens, UniProt O43251-10, residues 100-194)
# Setting: natural RNA segment, single round, ends assumed
# Constant ends, left off below: GGGAGUUCUACAGUCCGACGAUC … UGGAAUUCUCGGGUGCCAA
Oligonucleotide,RBNS enrichment (R)
UGUUUUGUUCCCUAUUAUAGAGUAUAUGCAAAAUUUGUCCCAGAUCUUCUUUGACUUUGUGCUUGCUCUUUAAAGUGUCCUAAGAAAAUUAAUUUUUUCAGGUAUUUUUC,0.55
UCUCUUAAUUCUCUCUUACAGUAUUUGUUUACUUUGGAUUUUUGUUUUUAAUCUCAAAAGAGAGAGAUGUGUUUAAUGGACACAAGCUGUAGUUCUCAGCAAAACUUUGU,0.532
AGGUGUGGGCAUUUAAGAGGUACCAGAGGGAAAGGAGCCUCCGAAGGACUCGCAGGGGCAGUCGCAGCUGAUGUUUGAGUGCCCUGGGAUGGGAGUCAGACUGGCUGAGG,0.779
UAAUGACAUUGUUGUUGAUAAAUCUUUUUGCCUAAAAACUAGAAUAAAAUUGCAGUUGUUUCAGUGAUGCCUAAGACUGGUAUAUUUCCACAUUUAUGUACUGAACAUUU,0.37
AUGGUUACACCAUCACCCCCAACACCCUCAAGACCCUGGUGCUGGUAGGCUGUUUCACCGUCUUCUGGACUGUUUACUACAUGCUGGAAGUAUAUUUGAGCCAGAGGAAU,0.999
UCUCCUAAGUACUUAUUCAUGCCUCUGAUGUGCCUUGUAUCUGAAUCCAGGAUGGCAGAGAUCCCCUGUCCCUGGAAGGUGUCAUAUAUUACUAGCUAGUAUUAGGUUGA,0.547
CUGUCCGCUGUAUCUCCUCUGUGGGAGUAAACGCCACACUGUGUUUGUGAGUUCAGCACAGGGCCCAGAAGCUGCUGGUUUUAAAUAUUUACUUUCCCAGGAGGUGGGUU,0.449
CCUUAGGCUCACAGUUCAGAUCUGCAUGCAUUGCUUGCAUUGUUCUGGUAUCUGAAUGUUGAUUCCUCAUUUAGGAGUUCAGCAUUAAUUUCCAAAAUUUUCAUGGGGCU,0.818
AAAACAGUCUGAAUGAAUUUGGUGAAAAGUGGGAGUUAAACUCUGGAGAUGGAGCUUUCUAUGGCCCAAAGGUUGACAUACAGAUUAAAGAUGCGAUUGGGCGGUACCAC,0.571
UGGCUCCUUUGGACCUACCCCUGUCCUUGCUGACUUGUGUUGCAUUGUAUUCCAAACGUGUUUACAGGUUCUCUUAAGCAAUGUUGUAUUUGCAGGCUUUUCUGAAUACC,0.386
UGCUCAUGGAAUCCAGUCGAGCAGAAGUUUCGGACAGCCCACCACAUCACCAUGUUCCUUGUUAACAUUUUUCUUUUCGCAGAGAGGAAAAUAUGUUUUUGCUGCUUUAU,0.576
GUUAUCUCCACUAACAUAUCCAAGAAUCUUUGUAGGACAAUUUCUCCACCUGCAAGGUCUUUCAGGUAGAACUCUUCUUUUAAGGCAAUUAGCCCAUUGCCAAAAGGUUU,0.433

# Block 2 — organism: Saccharomyces cerevisiae; effect on: peptide binding; method: yeast competitive growth sequencing; form: peptide; strain: cyclin F-Cln2 fusion; tested at: concentration not given; setting: Cln2 background subtracted; direction: direction not given
Sequence,binding score
APPRKALFTYPKG,1.76
REPARRLFLFGEE,5.65
EDLLKELQKQLEE,-0.173

# Block 3 — method: aptamer microarray, sandwich; form: DNA with 2'F-ANA; matrix: in vitro; tested at: 200 nM; added: Cy3 exosite-II aptamer, 400 nM; direction: higher = stronger binding; oligonucleotide: GGTTGGTGTGGTTGG
# Target: Prothrombin, mature alpha-thrombin (F2, Homo sapiens, UniProt P00734)
# Setting: whole 15-mer aptamer, many near background
Modification,mean fluorescence intensity [a.u.]
2'F-ANA at 1 2 6 7 8 13 14,368
2'F-ANA at 1 3 4 5 8 11 12 14,50
2'F-ANA at 2 3 5 6 7 12 13,132
2'F-ANA at 3 4 6 11 14,477
2'F-ANA at 1 6 7 9 11 12 15,233
2'F-ANA at 1 2 4 7 11 15,102
2'F-ANA at 1 2 5 6 7 8 9 12 13 14 15,50.8
2'F-ANA at 11 14,226
2'F-ANA at 6 8 10 11 12 13 15,158
2'F-ANA at 1 2 3 4 5 8 10 11 13,48.2
2'F-ANA at 2 3 4 8 9 12 13,644
2'F-ANA at 4 7 8 9 11 12 13,401
2'F-ANA at 3 6 7 8 9 12 13,1110
2'F-ANA at 4 5 7 13,66.3
2'F-ANA at 3 4 8 14,462
2'F-ANA at 1 8 9 10 13 14,49.2

# Block 4 — method: RNA Bind-n-Seq; form: RNA; matrix: in vitro; tested at: not given; baseline: input RNA pool; direction: higher = stronger binding
# Target: RING finger protein unkempt homolog, zinc fingers 1-6, GST-SBP tag (UNK, Homo sapiens, UniProt Q9C0B0, residues 30-357)
# Setting: RNA with constant flanks, human-mouse chimeric sites, ends assumed
# Constant ends, left off below: GGGAGUUCUACAGUCCGACGAUC … CAACAGAGGAUUGAGCAUCA
# Target sequence (chain): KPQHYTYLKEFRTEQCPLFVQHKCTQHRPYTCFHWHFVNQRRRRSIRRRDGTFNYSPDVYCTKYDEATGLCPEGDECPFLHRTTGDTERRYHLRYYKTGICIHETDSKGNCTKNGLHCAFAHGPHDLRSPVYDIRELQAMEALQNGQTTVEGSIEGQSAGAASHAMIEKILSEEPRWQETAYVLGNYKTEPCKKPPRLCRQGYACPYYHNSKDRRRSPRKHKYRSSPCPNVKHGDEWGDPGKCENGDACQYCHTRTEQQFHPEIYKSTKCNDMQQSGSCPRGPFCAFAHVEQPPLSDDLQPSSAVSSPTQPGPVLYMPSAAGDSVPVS
Oligonucleotide,bound/input enrichment
GUGUCCUGCUUUCAACUUAAAUCACUGAGGCAUCUCUACUGUUCUGUGAGCAUCAGGACUGUAGCGCUUGCCACCACCAUGAGAGUUCAGAAGCAGCCUUUCUGUGGAGAGUGAGAAUGA,0.0921 ratio
AGUGUGCAGGAAUUCAUGACCUUCACGAGUCAACUGAUUGUGGAACGCUCGGGGAAAGGCACUAGAGCUUCUGUCAAAGAACAAGAGUAUCUUUGCCAUGUCUACGUCCGGAGCGACAGU,0.0728 ratio
GGAAGUACAAUGAUGGAGAUUGAUGGUGACAAAGGCAAGCAGGGCGGGCCCACCUACUACAUAGAUACCAAUGCCCUCCGCGUGCCCAGGGAGAACAUGGAGGCCAUCUCACCACUCAAG,0.288 ratio
GGCCUGGGACCGUCCUGGGCUAGUACAAAUAGCGGCAGUGGAGGCUCGAGAGGAAAGUUUGUUAGUGGAGGCAGUGGUAGAGGCCGUCAUGUACGGUCUUUACACGAAUAGAUGUGUUCU,0.759 ratio
CCUCCCCCGGGCCACCCGCCCGCCCAAGCUCCCCGCCGAGAUCCAGGUUUCUUCUUAUUUCAUAGCAAAUAAGAAAAAUGUUCUACGCACAUUUUGUCCUCAGUAAACGAGGGCCUCUGG,2.64 ratio
CCCUCCCCGGGCCACCCACCCCUCCCGGCUCCCCGCCGAGAUCCAGGUUUCUUCUUAUUUCAUAGCCAAUAAGAAAAAUGUUCUACGCACAUUUUGUUCUCAGUAAACGAGGGCCUCUGG,1.02 ratio
AUCAAAUACUUUGGGGACAUCAUUAGUGUGGGACAGAGACUGUUGCAAGGAGCUCGGAUUUUAGGAAUUCCUGUUAUCAUAACGGAACAAUACCCCAAAGGACUUGGCAGCACCGUUCAA,0.467 ratio
GUACUGCAGCAGCAGGGAAAACUGCAGGAAGCACUGAUGCAUUAUAAGGAGGCUAUUCGAAUCAGUCCUACCUUUGCUGAUGCCUACUCUAAUAUGGGAAACACUCUAAAGGAGAUGCAG,0.286 ratio
GAGUCGAGCAAACUUGAAACUACAGAAUAUCUUGCAGCCUCAGUGUUCACUUGCUUGGCGAUAGCAUUGGGGUUUUAUAGGUUCUGGAAGGAGAACUUUAAUGCUCACUGCCGCUGCUGC,0.13 ratio
GAUAAGAAAAGCUUGUUGGAGACCCGCUUGCAUGUCACUGGUAGAGACCUGAGGUGUCAAAUAGCUGAAACUUUCGGAUUUCAAGAAAAUUAUAUCAAGAUCGUAAUAAAUAAGAAACAG,0.59 ratio
AGUGUGCAGGAAUUCAUGACCUUUACAAGUCAACUGAUUGUGGAGCGCUCGGGGAAAGGCAGCAGAGCUUCUGUCAAAGAACAAGACUAUCUUUGCCAUGUCUACGUCCGGAGCGACAGU,0.143 ratio

# Block 5 — method: Spec-seq; form: double-stranded DNA, one strand shown; matrix: in vitro; tested at: not given; setting: whole probe, mean of replicates; baseline: not given; direction: lower = stronger binding; constant ends, left off below: GAGTCGTCTCGTCAGCAC … CCGTAGAGCACTCAGGTC
# Target: POU, POU domain (Salpingoeca helianthica)
# Target sequence (chain): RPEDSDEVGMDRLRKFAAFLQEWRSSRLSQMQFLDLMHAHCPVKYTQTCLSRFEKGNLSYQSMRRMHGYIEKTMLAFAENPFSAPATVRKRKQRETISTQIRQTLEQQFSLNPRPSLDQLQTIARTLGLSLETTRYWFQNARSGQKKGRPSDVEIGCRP
Oligonucleotide,relative binding energy [ln ratio]
ATCCTAAT,0.743
ATAGCGAT,1.22
TCGCTAAT,0.581
ATGCATAC,0.717
ATACCAAT,1.11
ATTGAAAT,1.07
ATGCGTGT,1.44
ATGCGCAT,1.24
ATTGCCAT,1.21
CCCTTAAT,0.547
ATGTTGAT,1.15

# Block 6 — method: protein binding microarray; form: double-stranded DNA, one strand shown; matrix: in vitro; tested at: not given; baseline: not given; direction: higher = stronger binding
# Target: Histone acetyltransferase KAT6A, winged helix 2, GST fusion (KAT6A, Homo sapiens, UniProt Q92794, residues 85-181)
# Setting: 8-mer, flanks averaged, mean of 2 arrays, mostly near background
# Target sequence (chain): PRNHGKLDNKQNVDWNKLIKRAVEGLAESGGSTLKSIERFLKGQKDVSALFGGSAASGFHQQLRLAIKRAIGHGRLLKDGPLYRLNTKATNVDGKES
Oligonucleotide,E-score
GGAAAACA,0.117
CGAATTCA,0.168
CGTTTGCA,0.102
TGCCCGAA,0.0792
AAGGAGTC,-0.113
AGAACGAG,0.101
GGGAAGAA,-0.0312
GCACGAGC,0.0129
GAATTGGA,-0.0401
CGCCATTA,0.0472
ATTTCAGG,0.0779
CTTTCGAC,-0.00679
TCCTCACA,0.0282
GTCGAGGA,-0.11
CAGCAAGG,-0.000815
ATTTTTAA,0.17
GCGGACAA,0.195
ATCGCATC,-0.0328
AGGTTAAT,0.111
TGCTGTAA,0.13
CCCTCACA,0.127
ATGGGGTA,-0.0657
CATCCCGA,0.0871
CCCTGAGC,0.0327
AGATGCTC,0.0478

# Repeated from above (block 3):
Modification,mean fluorescence intensity [a.u.]
2'F-ANA at 2 3 4 8 9 12 13,644
2'F-ANA at 4 5 7 13,66.3
2'F-ANA at 2 3 5 6 7 12 13,132
2'F-ANA at 1 6 7 9 11 12 15,233
2'F-ANA at 1 8 9 10 13 14,49.2
2'F-ANA at 11 14,226
2'F-ANA at 1 2 5 6 7 8 9 12 13 14 15,50.8
2'F-ANA at 3 4 8 14,462
2'F-ANA at 1 2 6 7 8 13 14,368
2'F-ANA at 1 2 4 7 11 15,102
